Assay results pooled from the literature.
Each line is one published result; not all experiments were run side by side. ± gives the spread as reported.
Organism: Plasmodium falciparum

COc1cc2nc(NCCc3ccccc3)nc(NCc3cc(C)no3)c2cc1OC — IC50 (parasite growth; 3D7; 72 h, asynchronous culture): 743 ± 162 nM
CC1(c2ccccc2)NC(C(=O)O)Cc2c1[nH]c1ccccc21 (centres unmarked) — IC50 (parasite growth; Dd2): > 5000 nM
CCOC(=O)c1cnc(SC)nc1Nc1ccc(Cl)cc1 — IC50 (parasite growth, [3H]hypoxanthine incorporation; NF54 (chloroquine-sensitive)): 6180 nM
Cc1cc(C)cc(C(=O)NOCCCCCC(=O)NO)c1 — IC50 (parasite growth; HN12, NF54; 72 h, gametocyte): ≤ 1000 nM
Clc1ccc2c(Nc3ccc(N4CCN(Cc5ccccc5)CC4)cc3)ccnc2c1 — IC50 (parasite growth, SYBR Green; DD2; 72 h, drug-resistant strain, blood stage): 26 nM
CCN(CC)CCCC(C)Nc1ccnc2cc(Cl)ccc12 (centres unmarked) — IC50 (parasite growth, SYBR Green; 3D7; 72 h, blood stage): 12.6 nM
COC1=CC(c2ccc[nH]2)=N/C1=C\c1[nH]c(Cc2ccc(F)cc2)cc1Cc1ccc(F)cc1 — IC50 (parasite growth; D6; 72 h): < 8.3 nM
CCN(CC)CCCC(C)Nc1ccnc2cc(Cl)ccc12 (centres unmarked) — IC50 (parasite growth, SYBR Green I; Dd2, chloroquine-resistant): 93.8 ± 9.9 nM
CCCCN1CCC(c2ccc(Nc3ccnc4cc(Cl)ccc34)cc2)CC1 — IC50 (parasite growth, SYBR Green; D6; 72 h, blood stage): 4 nM
COc1ccc(C2CC(=O)C3=C(C2)NC(C)=C(C(=O)OC(C)C)C3c2ccccc2C)cc1OC (centres unmarked) — IC50 (female gamete formation, refers to: Pfs25; stage V gametocytes; 24 h, compound washed out before gametes): > 20000 nM
C[C@H]1[C@@H](OC[C@@H](O)[C@@H](O)CO[C@H]2O[C@@H]3O[C@@]4(C)CC[C@H]5[C@H](C)CC[C@@H]([C@H]2C)[C@@]35OO4)O[C@@H]2O[C@@]3(C)CC[C@H]4[C@H](C)CC[C@@H]1[C@@]24OO3 — IC50 (parasite growth; D6; 72 h, blood stage): < 10 nM
COc1ccc(C(=O)/C=C/c2ccc(O)c(CN3CCN(c4ccnc5cc(Cl)ccc45)CC3)c2)c(OC)c1 — IC50 (parasite growth; W2; drug-resistant strain, blood stage): 300 to 600 nM
CC(C)CN1CCN(c2ccc(Nc3ccnc4cc(Cl)ccc34)cc2)CC1 — IC50 (parasite growth, SYBR Green; DD2; 72 h, drug-resistant strain, blood stage): 12 nM
O=c1c2c([nH]c3cc(F)cc(F)c13)-c1ccccc1C2 — IC50 (parasite growth; NF54; blood stage): 2.2 nM
CC(C)N1CCC(c2ccc(Nc3ccnc4cc(Cl)ccc34)cc2)CC1 — IC50 (parasite growth, SYBR Green; DD2; 72 h, drug-resistant strain, blood stage): 10 nM
Cc1cccc(C)c1OCC(=O)N[C@@H](Cc1ccccc1)[C@@H](O)C[C@H](Cc1ccccc1)NC(=O)[C@H](C(C)C)N1CCCNC1=O — IC50 (parasite growth, flow cytometry; 3D7, human O+ erythrocytes; 48 h): 1300 nM
CCN1CCN(c2ccc(Nc3ccnc4cc(Cl)ccc34)cc2)CC1 — IC50 (parasite growth, SYBR Green; D6; 72 h, blood stage): 10 nM
CCOC(=O)C1=C(C)NC2=C(C(=O)CC(c3ccc(OC)c(OC)c3)C2)C1c1ccccc1Cl (centres unmarked) — IC50 (female gamete formation, refers to: Pfs25; stage V gametocytes; 24 h, compound washed out before gametes): > 20000 nM
Clc1ccc2c(Nc3ccc(C4CCNCC4)cc3)ccnc2c1 — IC50 (parasite growth, SYBR Green; DD2; 72 h, drug-resistant strain, blood stage): 71 nM
CCOC(=O)C(=CNc1cccc2c(O)cccc12)C(=O)OCC — IC50 (parasite growth, [3H]hypoxanthine incorporation; NF54 (chloroquine-sensitive)): 12000 nM

For quick reference, copied from above:
CCOC(=O)C1=C(C)NC2=C(C(=O)CC(c3ccc(OC)c(OC)c3)C2)C1c1ccccc1Cl (centres unmarked) — IC50 (female gamete formation, refers to: Pfs25; stage V gametocytes; 24 h, compound washed out before gametes): > 20000 nM
CC1(c2ccccc2)NC(C(=O)O)Cc2c1[nH]c1ccccc21 (centres unmarked) — IC50 (parasite growth; Dd2): > 5000 nM
Cc1cc(C)cc(C(=O)NOCCCCCC(=O)NO)c1 — IC50 (parasite growth; HN12, NF54; 72 h, gametocyte): ≤ 1000 nM
